Experimental data of several laboratories.
Each numbered part is a random draw from the data of one study; scales do not carry over between parts.

Study 1
Target: Ras GTPase-activating protein-binding protein 1, C-terminal RGG region (G3BP1, Homo sapiens, UniProt Q13283)
Chain of UniProt Q13283 (whole entry, looked up): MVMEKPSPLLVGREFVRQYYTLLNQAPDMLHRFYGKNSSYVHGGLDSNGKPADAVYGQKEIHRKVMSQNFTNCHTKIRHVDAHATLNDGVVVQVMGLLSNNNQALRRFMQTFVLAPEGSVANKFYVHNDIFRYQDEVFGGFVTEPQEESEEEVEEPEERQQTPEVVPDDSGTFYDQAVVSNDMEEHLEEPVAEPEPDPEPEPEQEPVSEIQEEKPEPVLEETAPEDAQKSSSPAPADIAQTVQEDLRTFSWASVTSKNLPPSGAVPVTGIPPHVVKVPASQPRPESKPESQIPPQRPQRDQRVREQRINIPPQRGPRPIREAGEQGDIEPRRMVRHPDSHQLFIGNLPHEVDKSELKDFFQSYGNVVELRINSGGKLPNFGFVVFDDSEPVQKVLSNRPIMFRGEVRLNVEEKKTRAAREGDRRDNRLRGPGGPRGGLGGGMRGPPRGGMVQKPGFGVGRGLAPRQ
Method: RNA Bind-n-Seq
Form: RNA
Matrix: in vitro
Concentration: 1 µM
Setting: whole 134-nt RNA, ends assumed
Together with: 150 mM KCl
Relative to: input library
Direction: higher = stronger binding
Strand	log2 enrichment
GGGAGUUCUACAGUCCGACGAUCCACAGACAACACGCACCAAAACAGACACAGAGGGAAGGGGUUGGGAUGGGGACAGGGUGCACAGCAGGGCGGGGUAGGACCCCAGCCCCUUGGAAUUCUCGGGUGUCAAGG	-0.316
GGGAGUUCUACAGUCCGACGAUCUUGCCCUGGUGGCAUGCGGGGAGGAAGAGGUGGCCUCAUGGAUCGUGGUGGUCCCGGUGGAAUGUUCAGAGGUGGCCGUGGUGGAGACAGUGGAAUUCUCGGGUGUCAAGG	2.29
GGGAGUUCUACAGUCCGACGAUCCCUGUGCUACACAUCGUAUGUACCGAAUCAAAUUUUUUUAAACCCCCAAACCCCCCCAAAAAAGUAUUAUGUUACGCCGUUCGGAUCUGCUGGAAUUCUCGGGUGUCAAGG	-1.04

Study 2
Target: Histone acetyltransferase KAT6A, winged helix 1, GST fusion (KAT6A, Homo sapiens, UniProt Q92794, residues 1-85)
Method: protein binding microarray
Form: double-stranded DNA, one strand shown
Matrix: in vitro
Concentration: not given
Setting: 8-mer, flanks averaged, mean of 2 arrays, mostly near background
Relative to: not given
Direction: higher = stronger binding
Target sequence (chain): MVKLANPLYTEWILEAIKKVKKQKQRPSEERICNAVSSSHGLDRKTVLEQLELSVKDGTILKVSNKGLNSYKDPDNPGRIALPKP
Strand	E-score
AGCGGCTA	0.337
CATATGAG	-0.0997
AATGTAAT	-0.0289
ACTAACTG	-0.0911

Study 3
Target: Interferon regulatory factor 5, full length, phosphomimetic (IRF5, Homo sapiens, UniProt Q13568-2, residues 1-514, S451D/S453D/S456D/S462D)
Method: protein-binding microarray
Form: double-stranded DNA, one strand shown
Matrix: in vitro
Concentration: 940 nM top
Setting: 60-bp whole probe
Together with: salmon DNA 0.4 mg/ml
Relative to: random background probes
Direction: higher = stronger binding
All sequences stand within: GCCTAGCAC … GTCTTGATTCGCTTGACGCTGCTG
Strand	fitted relative affinity
GACGGTATGGACACTGGGGACGTGCTA	-0.262 z-score
CACGATATCAGTATCGAGACGTGCTAG	1.71 z-score
GACGGAGTGCTTTTCCTGACGTGCTAG	-0.00425 z-score
TTAGATCTCAGACTCGATTAGTGCTAG	-0.258 z-score
GACGGTATCGGTCTCGCGACGTGCTAG	8.33 z-score
TTAGATCTCAGACTGGATAAGTGCTAG	-0.3 z-score

Mixed results
Substance	target	test	test system	conditions	scale	measurement	result
PhoQ, residues 284 288 289 292 302 303 SIHMAM	PhoP, residues 12 14 15 18 19 SGWQI (Escherichia coli, UniProt P23836)	Sort-seq, measured: YFP reporter	E. coli	PhoQ-PhoP variant library, together with: 10 µM Mg2+	relative to: high Mg2+ state, higher = stronger signaling	fold induction	6.45

Repeated from above (study 3):
Strand	fitted relative affinity
GACGGTATCGGTCTCGCGACGTGCTAG	8.33 z-score
